Experimental data gathered from unrelated publications.
Parts stem from different laboratories: compare values within a part only.
Chain of UniProt P62344 (whole entry, looked up): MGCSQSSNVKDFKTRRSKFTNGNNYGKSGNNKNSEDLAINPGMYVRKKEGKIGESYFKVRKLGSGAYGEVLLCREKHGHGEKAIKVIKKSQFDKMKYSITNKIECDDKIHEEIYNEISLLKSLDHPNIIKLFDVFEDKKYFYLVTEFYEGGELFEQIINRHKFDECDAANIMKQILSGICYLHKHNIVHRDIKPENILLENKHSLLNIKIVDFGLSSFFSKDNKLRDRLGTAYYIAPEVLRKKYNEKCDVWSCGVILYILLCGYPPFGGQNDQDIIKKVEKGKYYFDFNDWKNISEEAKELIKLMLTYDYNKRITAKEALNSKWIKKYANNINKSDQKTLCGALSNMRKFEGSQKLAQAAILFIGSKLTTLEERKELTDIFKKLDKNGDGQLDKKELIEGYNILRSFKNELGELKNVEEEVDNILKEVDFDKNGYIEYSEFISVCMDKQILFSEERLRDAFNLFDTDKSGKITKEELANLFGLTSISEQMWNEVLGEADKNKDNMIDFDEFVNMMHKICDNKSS
Chain of UniProt P07949 (whole entry, looked up): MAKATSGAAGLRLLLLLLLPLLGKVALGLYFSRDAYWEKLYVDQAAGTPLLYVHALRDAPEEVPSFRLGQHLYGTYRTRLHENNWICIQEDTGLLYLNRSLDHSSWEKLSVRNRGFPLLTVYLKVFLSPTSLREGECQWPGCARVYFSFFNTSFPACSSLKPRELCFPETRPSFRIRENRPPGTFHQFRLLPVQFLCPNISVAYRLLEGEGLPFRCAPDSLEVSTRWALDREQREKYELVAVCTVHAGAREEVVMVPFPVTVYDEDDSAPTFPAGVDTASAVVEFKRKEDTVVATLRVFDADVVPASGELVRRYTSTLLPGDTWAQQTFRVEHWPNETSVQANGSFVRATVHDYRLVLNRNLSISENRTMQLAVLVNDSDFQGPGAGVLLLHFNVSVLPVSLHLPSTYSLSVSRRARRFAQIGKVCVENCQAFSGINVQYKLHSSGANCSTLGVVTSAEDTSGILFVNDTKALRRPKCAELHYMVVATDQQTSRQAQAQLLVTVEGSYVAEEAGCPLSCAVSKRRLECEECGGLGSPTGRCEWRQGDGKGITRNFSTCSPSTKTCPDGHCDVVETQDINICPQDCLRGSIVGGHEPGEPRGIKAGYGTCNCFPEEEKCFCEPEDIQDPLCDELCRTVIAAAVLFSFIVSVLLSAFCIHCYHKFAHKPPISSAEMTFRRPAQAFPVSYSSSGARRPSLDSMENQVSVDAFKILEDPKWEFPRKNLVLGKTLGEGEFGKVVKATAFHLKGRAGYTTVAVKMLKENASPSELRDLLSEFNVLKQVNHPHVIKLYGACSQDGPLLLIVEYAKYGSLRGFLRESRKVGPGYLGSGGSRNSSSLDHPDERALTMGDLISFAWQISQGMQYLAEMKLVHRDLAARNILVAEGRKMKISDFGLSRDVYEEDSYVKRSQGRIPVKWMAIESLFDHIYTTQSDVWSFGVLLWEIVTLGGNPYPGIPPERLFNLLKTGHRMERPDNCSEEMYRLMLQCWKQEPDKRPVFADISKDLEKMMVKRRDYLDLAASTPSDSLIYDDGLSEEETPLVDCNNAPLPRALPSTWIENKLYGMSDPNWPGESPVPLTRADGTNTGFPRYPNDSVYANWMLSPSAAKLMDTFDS
Chain of UniProt Q08345 (whole entry, looked up): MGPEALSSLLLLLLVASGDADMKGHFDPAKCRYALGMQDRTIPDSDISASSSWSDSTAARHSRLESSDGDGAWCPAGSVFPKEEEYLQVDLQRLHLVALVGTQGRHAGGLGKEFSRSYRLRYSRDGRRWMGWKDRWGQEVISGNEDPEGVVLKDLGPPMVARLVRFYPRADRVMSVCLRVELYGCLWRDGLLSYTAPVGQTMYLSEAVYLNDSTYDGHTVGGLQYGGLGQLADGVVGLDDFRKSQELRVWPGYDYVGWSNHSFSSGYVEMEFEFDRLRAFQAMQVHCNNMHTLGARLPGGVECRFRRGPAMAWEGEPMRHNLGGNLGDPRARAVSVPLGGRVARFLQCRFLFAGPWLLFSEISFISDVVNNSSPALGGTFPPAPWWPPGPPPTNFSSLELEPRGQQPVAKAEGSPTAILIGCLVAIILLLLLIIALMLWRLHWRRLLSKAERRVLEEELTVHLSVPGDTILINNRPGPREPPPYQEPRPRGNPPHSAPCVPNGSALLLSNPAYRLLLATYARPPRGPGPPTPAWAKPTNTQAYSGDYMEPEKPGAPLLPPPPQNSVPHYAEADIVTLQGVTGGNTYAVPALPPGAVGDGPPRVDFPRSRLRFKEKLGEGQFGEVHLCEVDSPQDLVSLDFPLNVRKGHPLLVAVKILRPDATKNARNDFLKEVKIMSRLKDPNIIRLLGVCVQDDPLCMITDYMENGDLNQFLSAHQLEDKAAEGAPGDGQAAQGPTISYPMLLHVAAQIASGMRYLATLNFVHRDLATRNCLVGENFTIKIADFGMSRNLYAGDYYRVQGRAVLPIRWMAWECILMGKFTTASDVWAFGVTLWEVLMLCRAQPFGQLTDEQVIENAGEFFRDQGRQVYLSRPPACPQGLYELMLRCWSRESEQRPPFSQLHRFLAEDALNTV
Chain of UniProt P35462 (whole entry, looked up): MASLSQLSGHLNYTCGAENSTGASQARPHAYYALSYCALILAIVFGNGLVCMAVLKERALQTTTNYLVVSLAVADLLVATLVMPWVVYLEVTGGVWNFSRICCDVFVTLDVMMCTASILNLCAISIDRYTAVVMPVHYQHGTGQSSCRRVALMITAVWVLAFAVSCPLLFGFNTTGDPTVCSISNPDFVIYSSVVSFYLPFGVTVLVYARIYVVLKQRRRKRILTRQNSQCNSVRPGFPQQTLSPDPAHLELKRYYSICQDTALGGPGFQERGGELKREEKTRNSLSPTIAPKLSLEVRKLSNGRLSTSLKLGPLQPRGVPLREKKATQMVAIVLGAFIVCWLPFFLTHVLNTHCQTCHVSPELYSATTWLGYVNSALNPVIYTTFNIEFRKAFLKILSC
Chain of UniProt P06239 (whole entry, looked up): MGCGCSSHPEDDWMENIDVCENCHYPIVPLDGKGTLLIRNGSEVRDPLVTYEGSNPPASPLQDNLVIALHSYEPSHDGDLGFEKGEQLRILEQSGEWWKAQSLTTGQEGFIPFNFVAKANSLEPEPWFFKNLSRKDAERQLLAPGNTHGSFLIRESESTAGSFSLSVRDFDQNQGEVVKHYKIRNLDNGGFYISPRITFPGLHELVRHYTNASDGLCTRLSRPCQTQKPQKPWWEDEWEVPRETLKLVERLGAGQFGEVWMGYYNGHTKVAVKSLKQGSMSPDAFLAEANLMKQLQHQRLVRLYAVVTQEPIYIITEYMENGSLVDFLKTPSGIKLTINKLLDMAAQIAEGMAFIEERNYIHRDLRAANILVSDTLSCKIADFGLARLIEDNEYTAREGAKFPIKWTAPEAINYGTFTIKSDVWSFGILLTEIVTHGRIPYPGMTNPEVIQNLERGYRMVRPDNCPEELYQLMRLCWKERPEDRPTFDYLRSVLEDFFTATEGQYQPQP
Chain of UniProt P51813 (whole entry, looked up): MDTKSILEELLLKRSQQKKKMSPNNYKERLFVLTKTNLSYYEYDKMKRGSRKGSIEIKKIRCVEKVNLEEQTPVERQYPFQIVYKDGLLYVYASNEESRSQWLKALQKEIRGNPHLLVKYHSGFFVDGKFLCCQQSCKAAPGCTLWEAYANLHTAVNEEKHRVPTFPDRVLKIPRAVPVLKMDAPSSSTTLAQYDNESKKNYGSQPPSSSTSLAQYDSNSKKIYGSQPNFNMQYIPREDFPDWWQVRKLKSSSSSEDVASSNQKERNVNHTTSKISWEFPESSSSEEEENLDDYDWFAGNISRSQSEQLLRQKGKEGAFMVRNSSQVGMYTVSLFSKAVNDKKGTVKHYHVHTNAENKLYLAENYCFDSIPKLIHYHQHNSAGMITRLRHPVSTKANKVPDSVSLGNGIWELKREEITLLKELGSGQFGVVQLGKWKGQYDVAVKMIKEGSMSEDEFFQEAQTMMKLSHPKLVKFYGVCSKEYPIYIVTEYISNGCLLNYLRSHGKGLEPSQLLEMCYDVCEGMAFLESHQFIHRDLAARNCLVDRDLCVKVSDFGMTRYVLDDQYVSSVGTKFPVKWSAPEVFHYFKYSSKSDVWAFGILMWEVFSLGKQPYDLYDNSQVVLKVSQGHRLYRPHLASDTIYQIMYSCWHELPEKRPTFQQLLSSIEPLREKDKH
Chain of UniProt O15530 (whole entry, looked up): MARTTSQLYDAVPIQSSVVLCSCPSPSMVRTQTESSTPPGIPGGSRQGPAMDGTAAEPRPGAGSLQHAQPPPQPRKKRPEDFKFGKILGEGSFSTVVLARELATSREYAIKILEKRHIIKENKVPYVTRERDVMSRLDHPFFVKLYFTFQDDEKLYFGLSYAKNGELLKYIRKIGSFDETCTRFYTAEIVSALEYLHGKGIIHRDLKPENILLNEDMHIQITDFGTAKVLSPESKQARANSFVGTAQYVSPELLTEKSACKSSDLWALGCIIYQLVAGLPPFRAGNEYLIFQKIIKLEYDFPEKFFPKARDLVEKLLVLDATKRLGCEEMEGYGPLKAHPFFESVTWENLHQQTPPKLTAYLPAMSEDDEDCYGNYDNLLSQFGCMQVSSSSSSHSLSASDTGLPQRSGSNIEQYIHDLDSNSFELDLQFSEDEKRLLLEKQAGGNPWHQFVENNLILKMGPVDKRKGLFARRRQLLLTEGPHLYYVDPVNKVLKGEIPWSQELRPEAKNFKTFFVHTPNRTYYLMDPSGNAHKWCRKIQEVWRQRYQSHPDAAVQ
Chain of UniProt P51817 (whole entry, looked up): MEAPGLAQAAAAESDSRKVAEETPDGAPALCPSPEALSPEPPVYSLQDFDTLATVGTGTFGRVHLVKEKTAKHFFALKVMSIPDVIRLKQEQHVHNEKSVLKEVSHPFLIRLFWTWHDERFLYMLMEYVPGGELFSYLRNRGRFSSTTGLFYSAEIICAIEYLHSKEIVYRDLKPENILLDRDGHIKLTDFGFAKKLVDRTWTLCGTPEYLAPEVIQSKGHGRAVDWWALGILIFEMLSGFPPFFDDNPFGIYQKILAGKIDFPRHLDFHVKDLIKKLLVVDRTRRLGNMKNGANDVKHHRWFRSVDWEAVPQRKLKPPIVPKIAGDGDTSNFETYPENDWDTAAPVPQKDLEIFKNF

Study 1 — cell line: mouse MPNST tumor cells; method: high-content immunofluorescence imaging; item: nuclear SOX9; tested at: 10 µM; time: 12 h; notes: mean of 2 replicates; reference: DMSO control; direction: higher = more nuclear SOX9
Structure (SMILES) | nuclear SOX9 intensity
Cc1sc2c(c1C)C(c1ccc(Cl)cc1)=N[C@@H](CC(=O)Nc1ccc(O)cc1)c1nnc(C)n1-2 | 132 % of DMSO
Cc1cc(C(C#N)c2ccc(Cl)cc2)c(Cl)cc1NC(=O)c1cc(I)cc(I)c1O (centres unmarked) | 110 % of DMSO
CN(C)NC(=O)CCC(=O)O | 91.3 % of DMSO

Study 2
SMILES: CNC(=O)c1ccc(-c2cnn3ccc(C(=O)N(C)c4ccc(Cl)c(C(=O)OC)c4)cc23)cc1
target | test | setting | IC50
LCK (Homo sapiens, UniProt P06239) | enzyme activity, inhibitor |  | > 30 µM
RET (Homo sapiens, UniProt P07949) | enzyme activity, inhibitor |  | > 30 µM
SLC6A3 (Homo sapiens, UniProt Q01959) | cell-free assay |  | > 30 µM
CDK2 (Homo sapiens, UniProt P24941) | enzyme activity, inhibitor |  | > 30 µM
JAK1 (Homo sapiens, UniProt P23458) | enzyme activity, inhibitor |  | > 30 µM
DRD3 (Homo sapiens, UniProt P35462) | cell-free assay |  | > 30 µM
RPS6KB1 (Homo sapiens, UniProt P23443) | enzyme activity, inhibitor |  | > 30 µM
Androgen receptor (AR, Homo sapiens, UniProt P10275) | cell-free assay |  | > 30 µM
RAF1 (Homo sapiens, UniProt P04049) | enzyme activity, inhibitor |  | > 30 µM
PDPK1 (Homo sapiens, UniProt O15530) | enzyme activity, inhibitor |  | > 30 µM
Phosphatidylinositol 4-kinase (Cryptosporidium parvum, UniProt Q5CVD3) | enzyme activity, inhibitor, ADP-Glo | wild type | 0.00392 µM
PRKACA (Homo sapiens, UniProt P17612) | enzyme activity, inhibitor |  | > 30 µM
PIM1 (Homo sapiens, UniProt P11309) | enzyme activity, inhibitor |  | 3.72 µM
PRKAA2 (Homo sapiens, UniProt P54646) | enzyme activity, inhibitor |  | > 30 µM
ROCK2 (Homo sapiens, UniProt O75116) | enzyme activity, inhibitor |  | > 30 µM
OPRM1 (Homo sapiens, UniProt P35372) | cell-free assay |  | > 30 µM
MKNK2 (Homo sapiens, UniProt Q9HBH9) | enzyme activity, inhibitor |  | > 30 µM
Tribbles homolog 2 (TRIB2, Homo sapiens, UniProt Q92519) | enzyme activity, inhibitor |  | 3.48 µM

Study 3 — read-out: cell-free assay; method: competition with immobilised ligand; tested at: 1 µM
SMILES: Cn1cncc1[C@](O)(COc1ccc(C#N)cc1-c1ccc(OC(F)(F)F)cc1)c1ccc(C#N)cc1
target | remaining binding [%]
CDKL5 (Homo sapiens, UniProt O76039) | 100
CLK1 (Homo sapiens, UniProt P49759) | 70
GSK3A (Homo sapiens, UniProt P49840) | 62
MAPK4 (Homo sapiens, UniProt P31152) | 100
TAOK1 (Homo sapiens, UniProt Q7L7X3) | 87
MERTK (Homo sapiens, UniProt Q12866) | 84
DDR1 (Homo sapiens, UniProt Q08345) | 97
CDPK1 (Plasmodium falciparum, UniProt P62344) | 88
TRPM6 (Homo sapiens, UniProt Q9BX84) | 100
BMX (Homo sapiens, UniProt P51813) | 75
MARK1 (Homo sapiens, UniProt Q9P0L2) | 57
WNK1 (Homo sapiens, UniProt Q9H4A3) | 100
FLT3 (Homo sapiens, UniProt P36888, R834Q) | 98

Study 4 — read-out: enzyme activity; action: inhibitor; tested at: 0.5 µM; reference: control
SMILES: CCn1cnc2c(Nc3cccc(Cl)c3)nc(N[C@H]3CCCC[C@H]3N)nc21
target | remaining activity
SRC (Homo sapiens, UniProt P12931) | 54.7%
TAOK3 (Homo sapiens, UniProt Q9H2K8) | 104%
PRKX (Homo sapiens, UniProt P51817) | 102%
Cyclin-dependent kinase 3, with cyclin E (CDK3, Homo sapiens, UniProt Q00526) | 49.7%
NLK (Homo sapiens, UniProt Q9UBE8) | 90.8%
FGR (Homo sapiens, UniProt P09769) | 45.8%
LIM domain kinase 1 (LIMK1, Homo sapiens, UniProt P53667) | 108%
MATK (Homo sapiens, UniProt P42679) | 88.3%
MARK3 (Homo sapiens, UniProt P27448) | 98.7%
PKN1 (Homo sapiens, UniProt Q16512) | 69.9%

Some of these lines once more (study 3):
target | remaining binding [%]
TRPM6 (Homo sapiens, UniProt Q9BX84) | 100
BMX (Homo sapiens, UniProt P51813) | 75
MARK1 (Homo sapiens, UniProt Q9P0L2) | 57
